Results pooled from the literature.
Every numbered part comes from another study and shows a few of its results, in no order. Positions count from the first letter of the parent shown.

Study 1
Target: CCNB2, cyclin fold, Cln2 fusion (human)
Method: yeast growth competition, sequencing
Medium: yeast
Notes: weak parent motif
Baseline: not given
Direction: higher = stronger binding
Starting sequence: GMNC docking peptide (human); KNAKRNLSSEFAN
| Change | normalised enrichment score |
| --- | --- |
| S8T | 0.165 |
| S8Y | 1.56 |
| S9F | 0.302 |
| N6E | 0.521 |
| S9G | 0.154 |
| S8F | 0.869 |
| N2W | 0.364 |
| S9L | 0.199 |
| S8H | 0.379 |
| R5N | 0.803 |
| A3W | 0.529 |
| S9M | 0.543 |
| F11L | 0.267 |
| N2V | 0.413 |
| F11W | 0.386 |
| S9D | 0.167 |
| R5G | 0.699 |
| R5F | -0.083 |
| A12C | 0.311 |
| N2E | 0.69 |
| E10R | 0.704 |
| N2P | 0.841 |
| N6M | 0.579 |

Study 2
Target: RNA binding protein fox-1 homolog 2, RRM domain, GST-SBP tag (RBFOX2, Homo sapiens, UniProt O43251-10, residues 100-194)
Method: RNA Bind-n-Seq
Form: RNA
Medium: in vitro
Concentration: 365 nM
Notes: natural RNA segment, single round, ends assumed
Baseline: no-protein control
Direction: higher = stronger binding
All sequences stand within: GGGAGUUCUACAGUCCGACGAUC … UGGAAUUCUCGGGUGCCAA
Target sequence (chain): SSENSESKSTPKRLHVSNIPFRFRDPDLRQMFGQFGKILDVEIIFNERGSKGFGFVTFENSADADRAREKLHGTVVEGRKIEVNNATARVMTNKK
| Sequence | RBNS enrichment (R) |
| --- | --- |
| UUGACCCAGGCUCUUAUAGAUAGGUCCUAAACAUUGCUGUUCACUAGAUUAUCUUAACAAAUAAUACUCAGCUAAAUAUUUGCAUUUAGGAAUACUCCUAAAACAGAUAU | 0.501 |
| ACGUGGUAUUCCCCAGCGGUAGCCUGGAGGAAACUGUGCAAGCUGUGCAGCCCUCUAGUCAAUCACCAGUCCGGGAGUCAGGUUGUACUGAGUAGCUGGCCACGGAGGCU | 0.226 |
| CUCGAGUUACACAUAUGCAUAUGUCACACUGUCACUCAGUGUGUGGAUAUGCCUAUGUCACACUGUCACUCAGUGUGUGGAACUUUCUCUUUAAAGGUGUAACAUCUUAA | 0.346 |
| ACCCCUUACAUGAAUAUAGUCAUGUACACACACGCAUACAAAAAGUAAUACAAACACAAACAUCAUACACACUGACUCUGAACUGGGUGAACUCUGUGAAGGGAGGCCCA | 1.47 |
| AGUCUUCGUGUUUUGCACCCUGUGCAUUGCUAUAUUCACAAGUACCAACUGUAGGAGUCAGAGGUGUUGGCAAAAGUAUGCAUGAAUGCUAACCUUUGCACAUACUCUGU | 0.991 |
| UAGUGUGUCCCUAUUAUAAAUGCAUUGGAGAAGUAUUUUUAUGAGACUCUUUACUCAGGUGCAUGGUUACAGCCCACAGGGAGGCAUGGAGUGCCAUGGAAGGAUUCGCC | 1.8 |
| UGGAACCUGAGGGGCCAGCAGGCCUCUCUGAAGGCCUCCAUGGAGCAAACGGAGCCACCUCGGGAAAGAGUUUAAUGGAAUAUUUUUGUACCCGAUGUUUACAGAUGCUG | 0.353 |
| AAUAGAAGUUCACUUAGCUACUUUAGAUAACCUUGCAUUACCACUGGUCUGGCCACGUUUGUUAAAUCCUUAUACUGAUAUUCUUCUAAAGAGUAAAUCUCAUCAUUUUU | 3.36 |
| GUAGUUCCAGUGGGACCAACCUGUGAUGAAUAUGCCCAAAAGGUACGACAACAAUUCCACGAUGCCAAAUUCAUGGCAGACAUUGAUCUGGAUCCAGGCUGUACAUUGAA | 0.563 |
| AAAAUUAUGUUGUAGAAAAAAAAUCAACCUCUCCCAGGUGCAUUAAGAAAUAAGAAUUCCCAGGGUUACUCACCCAUGCGUAAGCUACCCAAGUUUAAUUUGGUAGCUGA | 0.531 |
| UGGGCGCAUUCUGUCUGGAGCUCCCAGAAGGAGCUGUGUGCUGCUGGAGAGGAGGCUAAUUGUUGGUUCAGACUCCUCCGCUUGGGUAAAAGACUCCCCUUAUCACUCUC | 0.589 |
| UGCAGAGAAUUCUUGCAGGAAUCAAUAAGGACGUGUCUCUAAUCACGUGUGCGAACUGAAAUGUCAUAGCUGAAGCAGUAUAACAGAAAACCUUUGUUUCCUGUGGGGGG | 0.394 |

Study 3
Target: Phosphate system positive regulatory protein PHO4, full length, GST-tagged (PHO4, Saccharomyces cerevisiae, UniProt P07270, residues 1-312)
Method: competition protein-binding microarray
Form: double-stranded DNA, one strand shown
Medium: in vitro
Concentration: 2 µM
Notes: whole 60-bp probe, lowest competitor level
Added: Cbf1 competitor, 0.05 µM
Direction: higher = stronger binding
All sequences stand within: … GTCTTGATTCGCTTGACGCTGCTG
Residues (chain): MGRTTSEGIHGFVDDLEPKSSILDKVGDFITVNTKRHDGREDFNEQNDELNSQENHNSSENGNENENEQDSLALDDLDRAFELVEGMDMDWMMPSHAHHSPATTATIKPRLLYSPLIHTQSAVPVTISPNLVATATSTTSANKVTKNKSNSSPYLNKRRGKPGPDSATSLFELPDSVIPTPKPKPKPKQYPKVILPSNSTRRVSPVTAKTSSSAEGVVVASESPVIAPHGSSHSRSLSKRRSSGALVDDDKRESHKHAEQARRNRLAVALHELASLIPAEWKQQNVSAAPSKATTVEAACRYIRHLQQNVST
| Sequence | fluorescence intensity [a.u.] |
| --- | --- |
| GTCTACAGCGTACTTCACGTTGTTCTCCTGAGGCAG | 8710 |
| GTCTTGTCTCATTGGTGAGTGGGTGTCCCCACTTCA | 5190 |
| CTTCTGTAAATTTGTGGGGTGGGTGGACGCGCCCCG | 4960 |
| GTCTTGTCTCATTGATTGGTGGGTGTCCCCACTTCA | 4560 |
| CATACCCAACCTTGGTAGGTGGGTGAAGATATTTGT | 3770 |
| TAATCTGATGATCGGCACGTATAGGTCTGCGACCTT | 5350 |
| CCTCCTCTACCGTTCGACATGACAAAAAGGCGTTGG | 4810 |
| TGCGCAACAACTTGTGCCGTGGGTGTATGTCTAGAA | 6160 |
| AAATTACTAAGTTGCCACGTGGGTGACGCCGTATGA | 25700 |
| TTCAGCCATCCAAGCCATGTGCTTTAAGTCGTCGCT | 9720 |
| CTTCTGTAAATTTGGAGGGTGGGTGGACGCGCCCCG | 4260 |
| CTTCTGTAAATTTGTTCAGTGGGTGGACGCGCCCCG | 4390 |

Study 4
Target: Sal-like protein 4, full length isoform A (SALL4, Homo sapiens, UniProt Q9UJQ4, residues 1-1053)
UniProt Q9UJQ4, sequence (whole entry, looked up): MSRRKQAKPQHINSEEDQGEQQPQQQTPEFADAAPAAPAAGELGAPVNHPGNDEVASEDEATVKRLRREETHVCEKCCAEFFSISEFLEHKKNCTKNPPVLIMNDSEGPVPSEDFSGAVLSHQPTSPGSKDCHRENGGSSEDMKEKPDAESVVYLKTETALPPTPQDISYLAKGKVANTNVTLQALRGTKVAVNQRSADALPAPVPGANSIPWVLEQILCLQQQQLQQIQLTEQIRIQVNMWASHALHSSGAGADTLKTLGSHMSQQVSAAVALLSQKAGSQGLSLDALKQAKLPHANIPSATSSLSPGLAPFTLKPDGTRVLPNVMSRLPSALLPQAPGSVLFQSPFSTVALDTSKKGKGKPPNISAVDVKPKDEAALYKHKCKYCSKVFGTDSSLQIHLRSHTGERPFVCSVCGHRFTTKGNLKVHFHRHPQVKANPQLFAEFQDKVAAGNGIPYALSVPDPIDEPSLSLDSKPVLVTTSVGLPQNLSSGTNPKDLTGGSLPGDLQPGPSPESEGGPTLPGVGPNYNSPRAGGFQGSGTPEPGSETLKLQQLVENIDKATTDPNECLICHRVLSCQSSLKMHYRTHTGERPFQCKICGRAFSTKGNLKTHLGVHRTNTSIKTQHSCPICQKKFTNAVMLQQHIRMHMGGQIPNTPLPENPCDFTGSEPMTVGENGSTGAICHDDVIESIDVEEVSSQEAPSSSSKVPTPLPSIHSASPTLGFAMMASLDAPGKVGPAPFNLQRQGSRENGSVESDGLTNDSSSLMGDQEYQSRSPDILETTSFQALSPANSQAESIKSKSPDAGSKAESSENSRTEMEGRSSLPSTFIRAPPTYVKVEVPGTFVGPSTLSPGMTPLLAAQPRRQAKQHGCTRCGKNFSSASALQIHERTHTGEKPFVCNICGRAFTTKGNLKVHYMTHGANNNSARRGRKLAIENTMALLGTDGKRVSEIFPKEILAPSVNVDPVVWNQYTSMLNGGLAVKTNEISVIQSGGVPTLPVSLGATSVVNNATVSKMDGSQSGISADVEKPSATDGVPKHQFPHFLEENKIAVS
Method: universal PBM
Form: double-stranded DNA, one strand shown
Medium: in vitro
Concentration: 600 nM
Notes: 8-mer, flanks averaged, mean of replicates
Direction: higher = stronger binding
| Sequence | E-score |
| --- | --- |
| AAAACGTT | 0.14 |
| GCGGATCA | -0.193 |
| CTCTTCCC | -0.0569 |
| GTCCTCCA | 0.0705 |
| CGGTTAAC | -0.0767 |
| ACAGTGCG | -0.165 |
| AACCCGGA | -0.296 |
| CGAGTGCA | -0.0516 |
| AAAATAGG | 0.287 |
| AGAGGGCG | -0.23 |
| ACCATCCT | 0.0996 |
| CCCGATGA | 0.0167 |
| GTGAGACA | -0.0597 |
| GATGTCCC | -0.204 |
| ATCACTAG | 0.0323 |
| CGCATGGC | -0.159 |
| GCATTGGA | 0.12 |
| CATGAGGC | -0.262 |
| CATAGAAC | -0.151 |
| AATTGTGA | 0.267 |
| CCATGGGG | -0.303 |
| GAGCAGCA | -0.0979 |
| GGGCTCTA | -0.199 |

Further values, each from its own experiment
| Substance | target | test | test system | setting | scale | measurement | value |
| --- | --- | --- | --- | --- | --- | --- | --- |
| PhoQ, residues 284 288 289 292 302 303 TNSAEL | PhoP, residues 12 14 15 18 19 NHFIF (Escherichia coli, UniProt P23836) | Sort-seq, measured: YFP reporter | E. coli | PhoQ-PhoP variant library, added: 10 µM Mg2+ | baseline: high Mg2+ state, higher = stronger signaling | fold induction | 13.3 |

Repeated from above (study 4):
| Sequence | E-score |
| --- | --- |
| ATCACTAG | 0.0323 |
| CGCATGGC | -0.159 |
| GCATTGGA | 0.12 |
| CATGAGGC | -0.262 |
| CATAGAAC | -0.151 |
